{"data": "Assay results collected from several papers", "note": "± gives the spread as reported."}
{"Structure (SMILES)": "COC[C@H](NC(=O)c1cnc(C)s1)C(=O)N[C@@H](COC)C(=O)N[C@@H](Cc1ccccc1)C(=O)[C@@]1(C)CO1", "cell line": "BT-16", "assay": "cell viability, MTT", "conditions": "10 µM, 72 h", "quantity": "inhibition", "value": "93.6%"}
{"Structure (SMILES)": "CNC(=O)c1ccc2c(c1)ncn2-c1ccc(CC(=O)OC(C)(C)C)cc1", "cell line": "mouse BMDM, peritoneal macrophages, 3T3SA", "assay": "ATP-based viability", "conditions": "concentration not given", "quantity": "necroptosis inhibition", "value": "inactive"}
{"Structure (SMILES)": "Cc1ccc(CNC(=O)Cn2cc(CSc3nc4ccccc4[nH]3)nn2)cc1", "cell line": "Caco-2", "assay": "MTT", "conditions": "500 ppm", "quantity": "cytotoxicity", "value": "90.9%"}
{"Structure (SMILES)": "Cc1c(O)cccc1C(=O)N[C@@H](CSc1ccccc1)[C@H](O)CN1C[C@H]2CCCC[C@H]2C[C@H]1C(=O)NC(C)(C)C", "cell line": "ΔE-expressing cells", "assay": "ΔE mislocalization, high-content imaging", "quantity": "maximal efficacy", "value": "120%"}
{"Structure (SMILES)": "COc1cc([C@@H]2c3cc4c(cc3[C@@H](O[C@@H]3O[C@@H]5CO[C@@H](C)O[C@H]5[C@H](O)[C@H]3O)[C@H]3COC(=O)[C@H]23)OCO4)cc(OC)c1O", "cell line": "HepG2 spheroids", "assay": "flow cytometry", "conditions": "1.7 µM, 24 h", "quantity": "S phase cells", "value": "2.32 ± 1.03%"}
{"Structure (SMILES)": "Cc1cc(Nc2ncc(Cl)c(Nc3ccccc3S(=O)(=O)C(C)C)n2)c(OC(C)C)cc1C1CCNCC1", "cell line": "CLB-BAR", "assay": "phosphoproteomics LC-MS/MS, measured: MAP1A phosphorylation", "conditions": "200 nM, 60 min", "scale": "baseline: untreated", "quantity": "log2 fold change", "value": -2.38}
{"Structure (SMILES)": "CCOc1cc(-c2nnc3n2CCC3)ccc1Nc1ncc2cc(C)nc(NCC(C)(C)C)c2n1", "cell line": "CAL-51", "assay": "cell growth", "conditions": "72 h", "quantity": "GI50", "value": "600 nM"}
{"Structure (SMILES)": "CN1CCC(CNc2ccc3ncc(-c4cccc(OC(F)(F)F)c4)n3n2)CC1", "cell line": "BT-16", "assay": "cell viability, MTT", "conditions": "10 µM, 72 h", "quantity": "inhibition", "value": "95.1%"}
{"Structure (SMILES)": "Nc1nc2ccn(CCCc3ccc(C(=O)N[C@@H](CCC(=O)O)C(=O)O)cc3)c2c(=O)[nH]1", "cell line": "HCT-116 Tet-On SHMT2 Y105F vs WT", "assay": "cell proliferation", "conditions": "8 days, added: doxycycline", "scale": "baseline: WT over Y105F", "quantity": "IC50 ratio", "value": "14 fold"}
{"Structure (SMILES)": "CC(=O)c1nn(-c2ccc(Cl)cc2)/c(=N/N=C(\\C)c2ccc(NC(=O)c3ccc(C)cc3)cc2)s1", "cell line": "HepG2", "conditions": "10 µM", "quantity": "toxicity", "value": "97.5%"}
{"Structure (SMILES)": "CCn1cc(-c2cc(Cn3ccoc3=N)cc3c2CCN([C@@H](C)c2cc(OC)ccn2)C3=O)c(C(F)(F)F)n1", "cell line": "Calu-3", "assay": "cell growth, inhibitor", "conditions": "120 h", "quantity": "EC50", "value": "0.537 nM"}
{"Structure (SMILES)": "Cc1c(C)c2c(c(C)c1O)CCC(C)(COc1ccc(CC3SC(=O)NC3=O)cc1)O2 (centres unmarked)", "cell line": "HepG2", "assay": "high content imaging, measured: nuclear size", "conditions": "24 h, representative mode", "quantity": "point of departure", "value": "37.2 µM"}
{"Structure (SMILES)": "Cc1cccc(-c2[nH]c(CNc3ccccc3F)nc2-c2ccc3ncnn3c2)n1", "cell line": "bone marrow CD138+ myeloma cells", "assay": "XTT", "test system": "human", "conditions": "1 µM", "scale": "baseline: untreated", "quantity": "relative viability", "value": 0.171}
{"Structure (SMILES)": "CCN(CC)Cc1cc(Nc2ccnc3cc(Cl)ccc23)ccc1O", "cell line": "N27 rat dopaminergic cells", "conditions": "dose not given, 36 h", "quantity": "autophagy flux", "value": "inhibited"}
{"Structure (SMILES)": "Nc1ccc2cc3ccc(N)cc3nc2c1", "cell line": "BT-16", "assay": "cell viability, MTT", "conditions": "10 µM, 72 h", "quantity": "inhibition", "value": "93.5%"}
{"Structure (SMILES)": "CCc1cnc(N2CCC(c3nc(COc4ccc(-n5cnnn5)cc4)cs3)CC2)nc1", "cell line": "HEK293T", "assay": "RNA-seq, measured: TRIB3 mRNA", "conditions": "10 µM, 6 h", "scale": "baseline: vehicle", "quantity": "log2 fold change", "value": 0.402}
{"Structure (SMILES)": "CCn1cc(-c2cc(Cn3ccnc3)cc3c2CCN([C@H](c2cc(OC)ccn2)C2CC2)C3=O)c(C(F)(F)F)n1", "cell line": "LoVo", "assay": "cell growth, inhibitor", "conditions": "120 h", "quantity": "EC50", "value": "> 30000 nM"}
{"Structure (SMILES)": "Cn1cc(-c2ccc(-c3cncc(Cl)c3N3CCC4(CCNC4=O)CC3)cc2)cn1", "cell line": "COLO 205", "assay": "microarray, measured: DBI", "conditions": "concentration not given, 2 h", "scale": "baseline: untreated cells", "quantity": "fold change in expression", "value": -2.49}
{"Structure (SMILES)": "O=C(/C=C/C=C/C=C/C1CCCCC1)NC1=C[C@@](O)(/C=C/C=C/C=C/C(=O)NC2=C(O)CCC2=O)[C@@H]2O[C@@H]2C1=O", "cell line": "SW1463", "assay": "cell growth, CellTiter-Glo", "conditions": "78 h", "quantity": "GI50", "value": "20900 nM"}
{"Structure (SMILES)": "COc1ccc2c(c1)c(CC(=O)O)c(C)n2C(=O)c1ccc(Cl)cc1", "cell line": "Swiss 3T3", "assay": "inhibitor, radioimmunoassay", "conditions": "concentration not given, added: mastoparan and forskolin", "quantity": "cAMP accumulation", "value": "inhibited"}
{"note": "Some of these lines once more:"}
{"Structure (SMILES)": "CCn1cc(-c2cc(Cn3ccoc3=N)cc3c2CCN([C@@H](C)c2cc(OC)ccn2)C3=O)c(C(F)(F)F)n1", "cell line": "Calu-3", "assay": "cell growth, inhibitor", "conditions": "120 h", "quantity": "EC50", "value": "0.537 nM"}
{"Structure (SMILES)": "Cc1c(C)c2c(c(C)c1O)CCC(C)(COc1ccc(CC3SC(=O)NC3=O)cc1)O2 (centres unmarked)", "cell line": "HepG2", "assay": "high content imaging, measured: nuclear size", "conditions": "24 h, representative mode", "quantity": "point of departure", "value": "37.2 µM"}
{"Structure (SMILES)": "Cc1cccc(-c2[nH]c(CNc3ccccc3F)nc2-c2ccc3ncnn3c2)n1", "cell line": "bone marrow CD138+ myeloma cells", "assay": "XTT", "test system": "human", "conditions": "1 µM", "scale": "baseline: untreated", "quantity": "relative viability", "value": 0.171}
